Assay results pooled from the literature.
Parts stem from different laboratories: compare values within a part only. Several values in a cell are separate wells, animals, samples, runs or records.
Sequence of UniProt Q16816 (whole entry, looked up): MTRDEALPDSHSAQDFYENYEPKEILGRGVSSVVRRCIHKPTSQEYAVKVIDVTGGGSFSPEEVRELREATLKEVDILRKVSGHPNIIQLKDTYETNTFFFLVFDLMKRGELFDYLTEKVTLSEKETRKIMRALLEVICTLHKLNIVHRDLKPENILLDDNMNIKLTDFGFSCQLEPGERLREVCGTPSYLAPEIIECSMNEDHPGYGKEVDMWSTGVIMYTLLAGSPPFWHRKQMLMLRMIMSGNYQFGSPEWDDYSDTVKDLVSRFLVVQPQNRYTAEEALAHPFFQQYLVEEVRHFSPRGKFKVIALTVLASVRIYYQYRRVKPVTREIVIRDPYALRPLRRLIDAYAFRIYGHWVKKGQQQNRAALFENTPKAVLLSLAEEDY
Sequence of UniProt Q9UK32 (whole entry, looked up): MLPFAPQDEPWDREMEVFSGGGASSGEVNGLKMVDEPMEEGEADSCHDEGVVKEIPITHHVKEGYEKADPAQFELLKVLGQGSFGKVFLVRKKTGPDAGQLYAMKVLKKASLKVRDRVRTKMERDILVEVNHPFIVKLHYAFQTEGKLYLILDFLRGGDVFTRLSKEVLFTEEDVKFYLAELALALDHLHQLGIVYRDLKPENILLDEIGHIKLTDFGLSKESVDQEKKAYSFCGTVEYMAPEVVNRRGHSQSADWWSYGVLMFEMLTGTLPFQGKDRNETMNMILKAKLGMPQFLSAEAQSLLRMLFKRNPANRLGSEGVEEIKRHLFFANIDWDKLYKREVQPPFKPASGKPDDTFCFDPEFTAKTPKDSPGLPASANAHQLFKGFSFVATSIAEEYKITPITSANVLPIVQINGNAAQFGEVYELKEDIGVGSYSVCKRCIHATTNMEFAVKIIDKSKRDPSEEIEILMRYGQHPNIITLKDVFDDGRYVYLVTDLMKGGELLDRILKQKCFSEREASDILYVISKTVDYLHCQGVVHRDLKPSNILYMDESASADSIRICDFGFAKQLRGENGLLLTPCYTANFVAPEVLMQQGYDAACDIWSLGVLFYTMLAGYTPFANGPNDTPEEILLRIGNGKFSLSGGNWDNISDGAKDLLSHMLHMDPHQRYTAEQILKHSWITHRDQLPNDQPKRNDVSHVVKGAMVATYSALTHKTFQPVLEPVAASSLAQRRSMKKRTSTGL
Sequence of UniProt Q9UEE5 (whole entry, looked up): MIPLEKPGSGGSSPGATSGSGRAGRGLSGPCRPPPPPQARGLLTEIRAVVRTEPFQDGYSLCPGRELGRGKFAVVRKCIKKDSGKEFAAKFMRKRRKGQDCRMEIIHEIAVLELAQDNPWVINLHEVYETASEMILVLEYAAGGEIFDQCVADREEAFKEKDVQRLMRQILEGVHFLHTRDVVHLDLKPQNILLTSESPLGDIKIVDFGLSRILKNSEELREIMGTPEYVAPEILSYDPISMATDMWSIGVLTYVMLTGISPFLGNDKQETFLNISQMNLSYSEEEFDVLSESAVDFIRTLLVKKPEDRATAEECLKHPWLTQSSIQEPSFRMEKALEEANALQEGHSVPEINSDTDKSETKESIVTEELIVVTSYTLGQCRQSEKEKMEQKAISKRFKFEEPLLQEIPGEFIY
Sequence of UniProt Q9H3Y6 (whole entry, looked up): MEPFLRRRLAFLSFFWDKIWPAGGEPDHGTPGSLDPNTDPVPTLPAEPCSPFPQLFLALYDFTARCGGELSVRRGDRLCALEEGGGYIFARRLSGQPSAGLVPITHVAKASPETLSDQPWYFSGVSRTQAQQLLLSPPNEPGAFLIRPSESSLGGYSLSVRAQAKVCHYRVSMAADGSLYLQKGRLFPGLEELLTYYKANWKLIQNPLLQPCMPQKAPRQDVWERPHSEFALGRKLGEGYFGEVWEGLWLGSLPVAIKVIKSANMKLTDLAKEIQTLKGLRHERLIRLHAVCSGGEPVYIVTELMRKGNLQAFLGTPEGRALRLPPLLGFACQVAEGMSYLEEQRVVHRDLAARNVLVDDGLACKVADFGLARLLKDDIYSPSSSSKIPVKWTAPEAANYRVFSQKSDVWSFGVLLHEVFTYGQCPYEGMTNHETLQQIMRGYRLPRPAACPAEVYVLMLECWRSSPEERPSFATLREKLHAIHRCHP
Sequence of UniProt O75716 (whole entry, looked up): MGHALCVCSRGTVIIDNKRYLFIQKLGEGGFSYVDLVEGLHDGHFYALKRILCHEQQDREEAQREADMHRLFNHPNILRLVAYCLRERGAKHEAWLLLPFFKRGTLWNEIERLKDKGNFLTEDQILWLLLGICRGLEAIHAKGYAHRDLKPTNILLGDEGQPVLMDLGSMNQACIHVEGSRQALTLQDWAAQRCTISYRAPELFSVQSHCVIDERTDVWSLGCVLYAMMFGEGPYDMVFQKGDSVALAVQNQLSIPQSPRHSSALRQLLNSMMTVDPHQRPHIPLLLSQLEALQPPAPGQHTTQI
Sequence of UniProt Q9UQM7 (whole entry, looked up): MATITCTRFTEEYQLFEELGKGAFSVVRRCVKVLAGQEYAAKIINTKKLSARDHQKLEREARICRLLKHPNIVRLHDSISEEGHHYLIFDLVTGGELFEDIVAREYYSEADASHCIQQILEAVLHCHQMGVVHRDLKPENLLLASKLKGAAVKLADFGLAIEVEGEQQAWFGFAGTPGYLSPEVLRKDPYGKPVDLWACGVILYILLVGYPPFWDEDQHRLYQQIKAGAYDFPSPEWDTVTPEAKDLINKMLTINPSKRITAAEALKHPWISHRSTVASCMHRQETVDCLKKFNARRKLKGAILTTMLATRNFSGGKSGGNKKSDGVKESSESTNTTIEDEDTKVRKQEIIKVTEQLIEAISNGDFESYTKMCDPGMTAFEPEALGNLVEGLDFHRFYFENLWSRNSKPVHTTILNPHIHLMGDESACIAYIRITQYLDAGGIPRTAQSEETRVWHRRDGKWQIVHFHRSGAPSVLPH

Series 1
SMILES: CN[C@@H]1C[C@H]2O[C@@](C)([C@@H]1OC)n1c3ccccc3c3c4c(c5c6ccccc6n2c5c31)C(=O)NC4
Read-out: enzyme activity
Mode: inhibitor
Concentration: 0.5 µM
Relative to: control
target	remaining activity
PHKG1 (Homo sapiens, UniProt Q16816)	2.34% and 1.43%
STK17A (Homo sapiens, UniProt Q9UEE5)	62.9%
SRMS (Homo sapiens, UniProt Q9H3Y6)	97.6%
RPS6KA6 (Homo sapiens, UniProt Q9UK32)	1.15% and 1.67%
STK16 (Homo sapiens, UniProt O75716)	47.9%

Series 2
Organism: Sarcocystis neurona
Read-out: parasite growth
Concentration: 10 µM
Notes: secondary screen
Compound	inhibition [%]
O=C(O)CCCc1ccc(N(CCCl)CCCl)cc1	-11.1
O=c1c2ccccc2[se]n1-c1ccccc1	-38.2
CN(C)C(=O)Oc1ccc[n+](C)c1.[Br-]	-0.14

Further values, each from its own experiment
SMILES	tested on	assay	test system	conditions	scale	endpoint	value
Cc1nnc2n1-c1sc(CCC(=O)N3CCOCC3)cc1C(c1ccccc1Cl)=NC2	mouse MPNST tumor cells	high-content immunofluorescence imaging, measured: nuclear SOX9	–	10 µM, 12 h, mean of 2 replicates	relative to: DMSO control, higher = more nuclear SOX9	nuclear SOX9 intensity	96.9 % of DMSO
O=C1C=C2C=C[C@@H]3C[C@@]2(O1)[C@@H]1CCCCN31	CAMK2A (Homo sapiens, UniProt Q9UQM7)	enzyme activity, inhibitor	–	10 µM	–	inhibition	8%
CC(C)n1cnc(-c2ccc(F)cc2)c1-c1ncc(C(=O)Nc2ccc(N3CCN(C)CC3)cc2)[nH]1	–	–	human, idiopathic pulmonary fibrosis	30 mg twice daily, trial, with standard of care	–	serious AEs resulting in death	0%

For quick reference, copied from above (further values, each from its own experiment):
SMILES	tested on	assay	test system	conditions	scale	endpoint	value
O=C1C=C2C=C[C@@H]3C[C@@]2(O1)[C@@H]1CCCCN31	CAMK2A (Homo sapiens, UniProt Q9UQM7)	enzyme activity, inhibitor	–	10 µM	–	inhibition	8%
